Experimental data from different studies.
Compare with care: the assays were run in different laboratories. Values joined by “and” are separate records of one study, mostly repeats; a detail may differ.
Cell line: SF-295

The TGI of `C#C[C@@]1(O)[C@@H](CO)O[C@@H](n2cc(I)c3c(N)ncnc32)[C@@H]1O` is reported as 3.77 µM (SRB; NCI-60 screen).
`CCCN1CCN(c2ccc3[nH]c(-c4ccc5[nH]c(-c6ccc(OCC)c(OCC)c6)nc5c4)nc3c2)CC1` has a growth percent of -63.2% (SRB; 10 µM, 48 h).
The log10 TGI of `S=C([S][Au-][P+](CCCCCC[P+]([Au-][S]C(=S)n1cccn1)(c1ccccc1)c1ccccc1)(c1ccccc1)c1ccccc1)n1cccn1` is reported as over -4 (cell growth, NCI-60 screen; CNS cancer).
`CCCN1CCN(c2ccc3[nH]c(-c4ccc5[nH]c(-c6cc(OC)c(OC)c(OC)c6)nc5c4)nc3c2)CC1` has a growth percent of 65.9% (SRB; 10 µM, 48 h).
For `C#C[C@@]1(O)[C@@H](CO)O[C@@H](n2cc(Cl)c3c(N)ncnc32)[C@@H]1O`, the TGI was 1.9 µM and 3.2 µM (SRB; NCI-60 screen).
The cell growth of `CSc1nc(-c2ccc(Cl)cc2)c2c(NC(=O)c3ccccc3)nnc-2[nH]1` is reported as 96.2% (SRB; 10 µM, NCI60 single-dose screen; relative to: untreated).
The IC50 of `O=C1NC(=NCc2cccs2)S/C1=C\c1ccc2ncccc2c1` is reported as over 10 µM (MTS; NCI60 panel).
`NNc1nc(-c2ccc(Cl)cc2)c2c(NC(=O)c3ccccc3)nnc-2[nH]1` has a cell growth of 103% (SRB; 10 µM, NCI60 single-dose screen; relative to: untreated).
The growth percent of `COc1ccc(OC)c(-c2nc3ccc(-c4nc5ccc(N6CCN(C)CC6)cc5[nH]4)cc3[nH]2)c1` is reported as 111% (SRB; 10 µM, 48 h).
With `O=C(Nc1nnc2n3c(Cc4ccccc4)n[nH]c3nc(-c3ccc(Cl)cc3)c1-2)c1ccccc1` the cell growth was 102% (SRB; 10 µM, NCI60 single-dose screen; relative to: untreated).
The growth percent of `CCCCN1CCN(c2ccc3[nH]c(-c4ccc5[nH]c(-c6ccc(OCC)cc6)nc5c4)nc3c2)CC1` is reported as 48.7% (SRB; 10 µM, 48 h).
The TGI of `Cn1cncc1C1=CN(c2ncnc3[nH]cnc23)CCS1` is reported as over 200 µM (CNS cancer).
`O=C(Nc1nnc2n3c(nc(-c4ccc(Cl)cc4)c1-2)SCC3=O)c1ccccc1` has a cell growth of 91.9% (SRB; 10 µM, NCI60 single-dose screen; relative to: untreated).

Repeated from above:
The IC50 of `O=C1NC(=NCc2cccs2)S/C1=C\c1ccc2ncccc2c1` is reported as over 10 µM (MTS; NCI60 panel).
`NNc1nc(-c2ccc(Cl)cc2)c2c(NC(=O)c3ccccc3)nnc-2[nH]1` has a cell growth of 103% (SRB; 10 µM, NCI60 single-dose screen; relative to: untreated).
